Measured values collected from several papers.
Every numbered part comes from another study and shows a few of its results, in no order.

Study 1 — method: protein-binding microarray; form: double-stranded DNA, one strand shown; medium: in vitro; concentration: 250 nM; notes: 60-bp whole probe; added: salmon DNA 0.4 mg/ml; relative to: random background probes; reading: higher = stronger binding; all sequences stand within: GCCTAGCAC … GTCTTGATTCGCTTGACGCTGCTG
Target: Interferon regulatory factor 7, full length, phosphomimetic (IRF7, Homo sapiens, UniProt Q92985, residues 1-503, S101K/S471D/S472D/S475D/S476D/S477D/S483D/S484D/S487D)
Target sequence (chain): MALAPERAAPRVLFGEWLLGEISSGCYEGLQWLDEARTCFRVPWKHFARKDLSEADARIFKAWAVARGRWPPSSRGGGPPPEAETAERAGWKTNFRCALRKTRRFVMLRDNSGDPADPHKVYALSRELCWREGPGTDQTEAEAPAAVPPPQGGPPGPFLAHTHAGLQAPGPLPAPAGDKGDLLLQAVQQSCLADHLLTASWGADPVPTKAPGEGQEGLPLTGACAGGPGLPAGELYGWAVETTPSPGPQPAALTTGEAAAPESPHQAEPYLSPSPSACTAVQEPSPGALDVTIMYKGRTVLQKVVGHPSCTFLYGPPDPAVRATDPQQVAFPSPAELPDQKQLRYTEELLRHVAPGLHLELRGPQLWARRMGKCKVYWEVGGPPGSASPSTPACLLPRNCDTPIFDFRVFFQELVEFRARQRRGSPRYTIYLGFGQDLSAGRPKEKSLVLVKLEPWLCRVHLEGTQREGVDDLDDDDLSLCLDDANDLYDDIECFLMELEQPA
Strand	log fluorescence [z-score]
GACGGTTTCGGGTATCGGGGCGTGCTA	6.87
GACGATTTCAGTTCCGACACGTGCTAG	0.793
TTAGGTCTCCTTATCCTTTGGTGCTAG	0.307
TCATGTTTGTGTGTGTAACTGTGCTAG	0.111
TTAGATTTCGGGCCTGGATTAGTGCTA	0.447
GACGCTTCCCTTTTCCTGACGTGCTAG	1.52
TCACCTAGCCATTATGAGACTGTGCTA	-0.114
TTAGAACTGGTGACTGGATTAGTGCTA	-0.65
TACGGTTTCGGTTCCGGGACGTGCTAG	12.2
TTAGGACTGGGGTGTCGGTTAGTGCTA	-0.544
TTAGGCCTGCTTATCCTTTAGTGCTAG	-0.126
GACGGTTTCGCCTATCGGGACGTGCTA	4.04
TTAGGTTTCGGTATCAGTTAGTGCTAG	10.6
TTAGGTTTCGGGAATGGGTTAGTGCTA	2.88
TTAGGACTGGAATTTCGGTTAGTGCTA	1.1
AATCAACTTTTTTTAATTGAGTGCTAG	0.0279
TCAGAATTTACTTTCTAACTGTGCTAG	0.403
CTCTGCTTGCGTCTGGGTGTGTGCTAG	-0.627
TTAGGTTCCCTTTTCGTTTAGTGCTAG	5.16

Study 2 — method: RNA Bind-n-Seq; form: RNA; medium: in vitro; concentration: 365 nM; relative to: no-protein control; reading: higher = stronger binding
Target: RNA binding protein fox-1 homolog 2, RRM domain, GST-SBP tag (RBFOX2, Homo sapiens, UniProt O43251-10, residues 100-194)
Notes: natural RNA segment, single round, ends assumed
All sequences stand within: GGGAGUUCUACAGUCCGACGAUC … UGGAAUUCUCGGGUGCCAA
Residues (chain): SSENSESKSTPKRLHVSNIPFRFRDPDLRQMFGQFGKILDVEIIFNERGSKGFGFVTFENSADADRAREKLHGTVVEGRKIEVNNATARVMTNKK
Strand	RBNS enrichment (R)
GCAAACACCUUCUGAAUUGCCAGCGCCCGGGUUUUUAUGUAAAAAUAGAGUGGCUAUGGAAGUUACACCUUCAUCUGUGGGAAGUAUUCUCAAACGUAGGGGUAUCUUUA	0.532
CUGGUAUUCCAAGUUGAGUAUGGGUUGAACUGGAAAAUUCCCUGAGGCAUAACUUGUUAGCCAAUUUGAGGAGAGCCAGUUUGAGGGUUAUGAAAGUCAGCACCAGAGAU	1.47
ACCCCCAAGAGAGGUUCGCCAUCCUCUGGCCUCGAGCCCUUGGUCCCUCCGUCCGUCUGUCCUCGGGGCCCGCUCCCCCGGUGGCCCUUGGGGAUCAAAGCGUGGGCCGC	0.261
UUUCUCUACCAAAGAAAAAAUGAGCAGGUUUAGGUUUUUACAUGACUUAUAUACAUUAGAUAAAAGGAGCUGUAUAAUUUAGCAGGAAGGGACUAUGGGAGAAUACUUUA	0.629
GCAUGUACUGUCCUGUAGGAAAGAAAAUGUGGCUCUAGCUAUUGACCCAUACAGCUGUUGGAAUCUCUGCAAGUAUAUUUGCCUAAUAAAUUCUCUCUUUUGUUUAAACU	43.6
ACUAAGUAGUCUUUCUGAAAACUGUUGGGUUCUAGGCAUUCCUGAGAAAUUGAAAGUGGCUACCUUUCAUGUCAAAAAUGUUGAUCUAUUAUAAAUAAAAUGUUUUUGCA	0.44
CGACACCUCGCUGCCAGGUUGUUUCAGCAAGGACCAGGUGUACCUGGACGGCAUCGUGCGCAUUCUGCGACAUCGCCAGACCAUCGAUUUCCCGUUGCUGACCUCACUGG	0.639
ACCCAGUGAGCCGAGAGGCCCUCUGGGCUCCACUUAUGCAUAUGCACCAAAAAAAAAAAAAAAAAAAAAAGGCUUCUUUAGACCCAGAGCCCUUUAAGAUGAUAAAGGAC	1.02

Study 3 — method: protein binding microarray; form: double-stranded DNA, one strand shown; medium: in vitro; concentration: not given; relative to: not given; reading: higher = stronger binding
Target: Histone acetyltransferase KAT6A, winged helix 2, GST fusion (KAT6A, Homo sapiens, UniProt Q92794, residues 85-181)
Notes: 8-mer, flanks averaged, mean of 2 arrays, mostly near background
Residues (chain): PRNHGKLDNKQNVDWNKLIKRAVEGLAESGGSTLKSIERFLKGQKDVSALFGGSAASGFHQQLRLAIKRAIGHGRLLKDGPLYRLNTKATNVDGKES
Strand	E-score
TCCGCGAA	0.166
GACCCTAC	-0.0707
CATTCGTA	-0.179
AAACATAA	-0.0936
TAATACGA	-0.0307
AGGGCGAA	-0.016
AAATGATC	-0.071
CTTAGTCA	-0.0277
TCAAAGAA	0.0639
ACGGCATA	0.182
ACAACCTG	-0.0959
CGCCTATC	-0.109
CCCATCCA	0.0354
GTGAAGTA	-0.144
CATGATCC	-0.116
CTAAATCA	-0.0359
GATTCCAC	-0.0483
CGGCTCAG	0.265
ATGTCTGA	-0.0299
GATGCAAC	0.00255
TACGGGAA	0.00957
AGGATTGA	-0.0108
CGAATGGC	0.107
CCGCTACC	-0.0177
CTTAGATA	0.00745

Study 4 — method: RNA Bind-n-Seq; form: RNA; medium: in vitro; concentration: 200 nM; notes: whole 134-nt RNA, ends assumed; added: 150 mM KCl; relative to: input library; reading: higher = stronger binding
Target: Ras GTPase-activating protein-binding protein 1, full length (G3BP1, Homo sapiens, UniProt Q13283)
Sequence of UniProt Q13283 (whole entry, looked up): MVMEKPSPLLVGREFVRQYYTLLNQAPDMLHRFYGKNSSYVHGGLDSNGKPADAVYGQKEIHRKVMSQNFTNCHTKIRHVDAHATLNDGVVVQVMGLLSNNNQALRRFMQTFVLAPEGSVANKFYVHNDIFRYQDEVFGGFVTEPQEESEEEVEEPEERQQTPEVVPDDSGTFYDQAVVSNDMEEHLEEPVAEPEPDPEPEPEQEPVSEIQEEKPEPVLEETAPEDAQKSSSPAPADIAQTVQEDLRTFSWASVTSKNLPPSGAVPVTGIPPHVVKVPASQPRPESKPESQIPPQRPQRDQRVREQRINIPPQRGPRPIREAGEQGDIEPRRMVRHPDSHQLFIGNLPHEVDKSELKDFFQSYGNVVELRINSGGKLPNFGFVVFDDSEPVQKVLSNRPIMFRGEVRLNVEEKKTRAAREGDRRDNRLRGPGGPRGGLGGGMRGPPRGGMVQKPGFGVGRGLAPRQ
All sequences stand within: GGGAGUUCUACAGUCCGACGAUC … UGGAAUUCUCGGGUGUCAAGG
Strand	log2 enrichment
UGGCCCUGGUGGCAUGCGGGGAGGAAGAGGUGGCCUCAUGGAUCGUGGUGGUCCCGGUGGAAUGUUCAGAGCUGGCCGUGGUGGAGACAG	0.112
CUGUGCUACACAUCGUAUGUACCGAAUCGGGGAAAAAGGGGAAAAAAAGGGGUUUUUGGGGAAAGUAUUAUGUUACGCCGUUCGGAUCUG	0.0369
AAGUCCUGUGCUACACAUCGUAUGUACCGAAUCGGGGUUUGGGGUGGGGAAAGGGGAAAGUAUUAUGUUACGCCGUUCGGAUCUGCACUU	0.775
CCUGUGCUACACAUCGUAUGUACCGAAUCGGGGUUUUUUUGGGGAAAAAGGGGAAAGGGGAAAGUAUUAUGUUACGCCGUUCGGAUCUGC	0.216
CCUGUGCUACACAUCGUAUGUACCGAAUCGGGAAAAAAAGGAAAAAAAGGGAAAAAAAGGGAAAGUAUUAUGUUACGCCGUUCGGAUCUG	-0.927
GCAGGAAGUAAAAACAAAUGGAAAUGCUUCGGAUAGUGGCAGGGGUGAGGGUUGCUAAGGAAAGGGUGGGAUGGGAGUGGGUAAAGAGUU	1.11
GUCCUGUGCUACACAUCGUAUGUACCGAAUCAAAGUGUGUGUGUGUGUGUGUGUGUAAAAAAGUAUUAUGUUACGCCGUUCGGAUCUGCA	0.617
AGUCCUGUGCUACACAUCGUAUGUACCGAAUCGGGCCCCCGGCCCCCGGGCCCCCGGAAAGUAUUAUGUUACGCCGUUCGGAUCUGCACU	-0.633
AAGUCCUGUGCUACACAUCGUAUGUACCGAAUCGGGAAAAAGGAAAAAGGAAAAAGGAAAGUAUUAUGUUACGCCGUUCGGAUCUGCACU	-1.05

A few entries again (study 4):
Strand	log2 enrichment
UGGCCCUGGUGGCAUGCGGGGAGGAAGAGGUGGCCUCAUGGAUCGUGGUGGUCCCGGUGGAAUGUUCAGAGCUGGCCGUGGUGGAGACAG	0.112
CUGUGCUACACAUCGUAUGUACCGAAUCGGGGAAAAAGGGGAAAAAAAGGGGUUUUUGGGGAAAGUAUUAUGUUACGCCGUUCGGAUCUG	0.0369
AAGUCCUGUGCUACACAUCGUAUGUACCGAAUCGGGGUUUGGGGUGGGGAAAGGGGAAAGUAUUAUGUUACGCCGUUCGGAUCUGCACUU	0.775
CCUGUGCUACACAUCGUAUGUACCGAAUCGGGGUUUUUUUGGGGAAAAAGGGGAAAGGGGAAAGUAUUAUGUUACGCCGUUCGGAUCUGC	0.216
CCUGUGCUACACAUCGUAUGUACCGAAUCGGGAAAAAAAGGAAAAAAAGGGAAAAAAAGGGAAAGUAUUAUGUUACGCCGUUCGGAUCUG	-0.927
GCAGGAAGUAAAAACAAAUGGAAAUGCUUCGGAUAGUGGCAGGGGUGAGGGUUGCUAAGGAAAGGGUGGGAUGGGAGUGGGUAAAGAGUU	1.11
GUCCUGUGCUACACAUCGUAUGUACCGAAUCAAAGUGUGUGUGUGUGUGUGUGUGUAAAAAAGUAUUAUGUUACGCCGUUCGGAUCUGCA	0.617
AGUCCUGUGCUACACAUCGUAUGUACCGAAUCGGGCCCCCGGCCCCCGGGCCCCCGGAAAGUAUUAUGUUACGCCGUUCGGAUCUGCACU	-0.633
AAGUCCUGUGCUACACAUCGUAUGUACCGAAUCGGGAAAAAGGAAAAAGGAAAAAGGAAAGUAUUAUGUUACGCCGUUCGGAUCUGCACU	-1.05
